Measured values of several laboratories.
Each line is one published result; not all experiments were run side by side.

Compound	host	sample	route	dose	setting	AUC(0-t)
Nc1ncc(-c2cnn(CCO)c2)c2scc(-c3ccc(NC(=O)Nc4cccc(F)c4)cc3)c12	human	plasma	oral	240 mg	patients	3980 ng·h/mL
CN(C(=O)n1cnc(-c2ccc[n+]([O-])c2)c1)C1CCCCC1	human	plasma	oral	40 mg	single dose	8750 ng·h/mL
CCCCC[C@H](O)CC[C@@H]1[C@H]2Cc3cccc(OCC(=O)O)c3C[C@H]2C[C@H]1O	human	plasma	inhaled	54 µg	patients	0.84 ng·h/mL
CNc1nc(Nc2ccc(-n3cnc(C)n3)c(OC)c2)nc2c1CC[C@H]2c1ccc(F)cc1	human	plasma	oral	30 mg	single dose, healthy volunteers	895 ng·h/mL
Cc1c(Cl)c(C)[n+]([O-])c(Cl)c1-c1noc(-c2cc(O)c(O)c([N+](=O)[O-])c2)n1	male human	plasma	oral	25 mg	single dose, fasted, healthy volunteers	2130 ng·h/mL
CCCOc1ccc([C@H]2CNC(=O)N2c2ccc3[nH]cnc3c2)cc1	human	plasma	oral	300 mg	multiple doses, twice daily, fasted	5660 ng·h/mL
CCCCCN1C[C@H](O)[C@@H](O)[C@H](O)[C@@H]1CO	human	plasma	oral	2000 mg	single dose, fasted, healthy volunteers	101000 ng·h/mL
O=C(NCCN1CCCC1)c1cc(-c2ccc(CN3CCOCC3)cc2)nc2ccc(F)cc12	human	blood	oral	200 mg	single dose, whole blood	1940 ng·h/mL
CNC(=O)c1ccc(-c2cnc3ncc(Cc4ccc5ncccc5c4)n3n2)cc1F	human	plasma	oral	100 mg twice daily	multiple doses, steady state, patients	3820 ng·h/mL
CN(C)C/C=C/C(=O)Nc1cc2c(Nc3ccc(F)c(Cl)c3)ncnc2cc1O[C@H]1CCOC1	human	plasma	oral	40 mg	multiple doses, once daily, steady state, patients	498 ng·h/mL
CC(C)(Sc1ccncc1-c1ccc(C#N)c2ccccc12)C(=O)O	male human	plasma	oral	15 mg	single dose, fasted	212 ng·h/mL
CS(=O)(=O)n1cc2c(n1)CN([C@H]1CO[C@H](c3cc(F)ccc3F)[C@@H](N)C1)C2	male human	plasma	oral	50 mg	single dose, fasted, healthy volunteers	39.4 µM·h
CCOc1ccc(Cc2cc([C@@H]3S[C@H](CO)[C@@H](O)[C@H](O)[C@H]3O)c(OC)cc2C)cc1	male human	plasma	oral	25 mg	single dose, fasted, healthy volunteers	8480 ng·h/mL
CS(=O)(=O)n1cc2c(n1)CN([C@H]1CO[C@H](c3cc(F)ccc3F)[C@@H](N)C1)C2	male human	plasma	oral	10 mg	single dose, fasted	9.07 µM·h
CC[C@@H]1C(=O)N(C)c2cnc(Nc3ccc(C(=O)N[C@H]4CC[C@H](N5CCN(CC6CC6)CC5)CC4)cc3OC)nc2N1C(C)C	human	plasma	intravenous	200 mg	patients, infusion	3320 ng·h/mL
CCc1nc(C(N)=O)c(Nc2ccc(N3CCC(N4CCN(C)CC4)CC3)c(OC)c2)nc1NC1CCOCC1	human	plasma	oral	40 mg	single dose, fasted, healthy volunteers	1740 ng·h/mL
O=C(c1nc2n(n1)[C@H](c1ccccc1)C[C@@H]2F)C1CC1	human	plasma	oral	25 mg	single dose, fasted, healthy volunteers	4110 ng·h/mL

Excerpt of the above:
Compound	host	sample	route	dose	setting	AUC(0-t)
CS(=O)(=O)n1cc2c(n1)CN([C@H]1CO[C@H](c3cc(F)ccc3F)[C@@H](N)C1)C2	male human	plasma	oral	50 mg	single dose, fasted, healthy volunteers	39.4 µM·h
CCCCC[C@H](O)CC[C@@H]1[C@H]2Cc3cccc(OCC(=O)O)c3C[C@H]2C[C@H]1O	human	plasma	inhaled	54 µg	patients	0.84 ng·h/mL
